Published values gathered from unrelated publications.
Each line is one published result; not all experiments were run side by side. Several values in a cell are separate wells, animals, samples, runs or records. ± gives the spread as reported.
B1: Cacna1c 1647-1777 (Mus musculus, UniProt Q01815); sequence looked up; chain NALSLQAGLRTLHDIGPEIRRAISGDLTAEEELDKAMKEAVSAASEDDIFRRAGGLFGNHVTYYQSDSRGNFPQTFATQRPLHINKTGNNQADTESPSHEKLVDSTFTPSSYSSTGSNANINNANNTALGR
B2: PLXNA2 RBD 1490-1600 (Homo sapiens, UniProt O75051); sequence looked up; chain LIRQQIEYKTLILNCVNPDNENSPEIPVKVLNCDTITQVKEKILDAVYKNVPYSQRPRAVDMDLEWRQGRIARVVLQDEDITTKIEGDWKRLNTLMHYQVSDRSVVALVPK
B3: DNAJB11 23-358 (Homo sapiens, UniProt Q9UBS4); chain GRDFYKILGVPRSASIKDIKKAYRKLALQLHPDRNPDDPQAQEKFQDLGAAYEVLSDSEKRKQYDTYGEEGLKDGHQSSHGDIFSHFFGDFGFMFGGTPRQQDRNIPRGSDIIVDLEVTLEEVYAGNFVEVVRNKPVARQAPGKRKCNCRQEMRTTQLGPGRFQMTQEVVCDECPNVKLVNEERTLEVEIEPGVRDGMEYPFIGEGEPHVDGEPGDLRFRIKVVKHPIFERRGDDLYTNVTISLVESLVGFEMDITHLDGHKVHISRDKITRPGAKLWKKGEGLPNFDNNNIKGSLIITFDVDFPKEQLTEEAREGIKQLLKQGSVQKVYNGLQGY
B4: IL23R 24-355 (Homo sapiens, UniProt Q5VWK5); sequence looked up; chain GITNINCSGHIWVEPATIFKMGMNISIYCQAAIKNCQPRKLHFYKNGIKERFQITRINKTTARLWYKNFLEPHASMYCTAECPKHFQETLICGKDISSGYPPDIPDEVTCVIYEYSGNMTCTWNAGKLTYIDTKYVVHVKSLETEEEQQYLTSSYINISTDSLQGGKKYLVWVQAANALGMEESKQLQIHLDDIVIPSAAVISRAETINATVPKTIIYWDSQTTIEKVSCEMRYKATTNQTWNVKEFDTNFTYVQQSEFYLEPNIKYVFQVRCQETGKRYWQPWSSLFFHKTPETVPQVTSKAFQHDTWNSGLTVASISTGHLTSDNRGDIG
Chain of UniProt P52198 (whole entry, looked up): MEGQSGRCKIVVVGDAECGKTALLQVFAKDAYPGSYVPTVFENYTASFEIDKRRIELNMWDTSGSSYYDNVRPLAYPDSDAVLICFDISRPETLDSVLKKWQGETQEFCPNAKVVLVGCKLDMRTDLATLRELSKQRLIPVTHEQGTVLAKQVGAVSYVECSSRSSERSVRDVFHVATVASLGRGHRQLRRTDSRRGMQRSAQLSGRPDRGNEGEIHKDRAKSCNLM
Chain of UniProt P06241 (whole entry, looked up): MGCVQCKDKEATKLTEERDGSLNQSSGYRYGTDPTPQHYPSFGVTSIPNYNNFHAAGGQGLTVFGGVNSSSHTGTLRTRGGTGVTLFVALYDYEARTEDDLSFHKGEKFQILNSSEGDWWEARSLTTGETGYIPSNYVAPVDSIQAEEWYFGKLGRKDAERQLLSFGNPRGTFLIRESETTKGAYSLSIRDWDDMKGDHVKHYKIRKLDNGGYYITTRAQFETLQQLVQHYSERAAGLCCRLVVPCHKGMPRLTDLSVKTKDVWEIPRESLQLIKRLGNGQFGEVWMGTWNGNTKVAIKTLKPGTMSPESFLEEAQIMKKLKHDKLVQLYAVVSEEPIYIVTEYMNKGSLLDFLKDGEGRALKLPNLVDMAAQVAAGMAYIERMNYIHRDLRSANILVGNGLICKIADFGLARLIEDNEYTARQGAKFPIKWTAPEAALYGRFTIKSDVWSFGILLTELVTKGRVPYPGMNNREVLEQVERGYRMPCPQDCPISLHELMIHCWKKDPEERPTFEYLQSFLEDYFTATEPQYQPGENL
Chain of UniProt P00740 (whole entry, looked up): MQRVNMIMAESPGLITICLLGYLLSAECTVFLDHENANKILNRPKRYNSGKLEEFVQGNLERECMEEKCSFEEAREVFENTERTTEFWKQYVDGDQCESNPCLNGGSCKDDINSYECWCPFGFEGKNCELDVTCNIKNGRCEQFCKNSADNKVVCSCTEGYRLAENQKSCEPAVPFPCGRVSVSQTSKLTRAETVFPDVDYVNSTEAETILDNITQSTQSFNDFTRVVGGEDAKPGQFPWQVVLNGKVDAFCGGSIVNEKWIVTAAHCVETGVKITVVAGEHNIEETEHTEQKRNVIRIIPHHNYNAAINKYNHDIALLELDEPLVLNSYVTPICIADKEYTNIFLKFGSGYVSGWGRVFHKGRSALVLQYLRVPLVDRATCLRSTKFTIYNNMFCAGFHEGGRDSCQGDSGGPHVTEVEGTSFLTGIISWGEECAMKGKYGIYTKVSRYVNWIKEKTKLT
Chain of UniProt P35372 (whole entry, looked up): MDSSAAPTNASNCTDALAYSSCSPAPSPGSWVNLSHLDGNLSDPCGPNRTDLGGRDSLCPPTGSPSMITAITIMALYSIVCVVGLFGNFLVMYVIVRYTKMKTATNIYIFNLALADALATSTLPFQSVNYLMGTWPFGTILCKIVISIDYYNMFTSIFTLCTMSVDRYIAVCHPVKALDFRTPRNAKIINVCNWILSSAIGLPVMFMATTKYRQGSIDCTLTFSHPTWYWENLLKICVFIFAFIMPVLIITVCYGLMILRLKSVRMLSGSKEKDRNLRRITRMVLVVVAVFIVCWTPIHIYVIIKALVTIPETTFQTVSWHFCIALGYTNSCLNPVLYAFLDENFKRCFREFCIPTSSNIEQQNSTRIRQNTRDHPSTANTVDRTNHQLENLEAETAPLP
Chain of UniProt Q14145 (whole entry, looked up): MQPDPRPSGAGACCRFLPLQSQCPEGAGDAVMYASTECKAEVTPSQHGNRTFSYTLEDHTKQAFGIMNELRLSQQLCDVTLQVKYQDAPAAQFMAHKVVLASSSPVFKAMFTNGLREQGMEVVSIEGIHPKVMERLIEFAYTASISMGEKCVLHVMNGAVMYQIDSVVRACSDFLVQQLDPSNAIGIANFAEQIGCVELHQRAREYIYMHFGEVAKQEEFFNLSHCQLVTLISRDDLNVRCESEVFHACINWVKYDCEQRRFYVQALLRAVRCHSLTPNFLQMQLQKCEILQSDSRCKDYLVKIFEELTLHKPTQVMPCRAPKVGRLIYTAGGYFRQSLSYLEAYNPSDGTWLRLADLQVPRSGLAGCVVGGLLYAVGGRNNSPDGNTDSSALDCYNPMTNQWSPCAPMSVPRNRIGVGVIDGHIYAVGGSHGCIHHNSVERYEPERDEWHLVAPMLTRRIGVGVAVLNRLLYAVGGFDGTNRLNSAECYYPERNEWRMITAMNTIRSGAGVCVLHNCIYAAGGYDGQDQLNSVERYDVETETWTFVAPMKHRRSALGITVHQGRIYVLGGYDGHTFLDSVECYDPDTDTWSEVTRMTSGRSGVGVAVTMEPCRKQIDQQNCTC
Chain of UniProt P11021 (whole entry, looked up): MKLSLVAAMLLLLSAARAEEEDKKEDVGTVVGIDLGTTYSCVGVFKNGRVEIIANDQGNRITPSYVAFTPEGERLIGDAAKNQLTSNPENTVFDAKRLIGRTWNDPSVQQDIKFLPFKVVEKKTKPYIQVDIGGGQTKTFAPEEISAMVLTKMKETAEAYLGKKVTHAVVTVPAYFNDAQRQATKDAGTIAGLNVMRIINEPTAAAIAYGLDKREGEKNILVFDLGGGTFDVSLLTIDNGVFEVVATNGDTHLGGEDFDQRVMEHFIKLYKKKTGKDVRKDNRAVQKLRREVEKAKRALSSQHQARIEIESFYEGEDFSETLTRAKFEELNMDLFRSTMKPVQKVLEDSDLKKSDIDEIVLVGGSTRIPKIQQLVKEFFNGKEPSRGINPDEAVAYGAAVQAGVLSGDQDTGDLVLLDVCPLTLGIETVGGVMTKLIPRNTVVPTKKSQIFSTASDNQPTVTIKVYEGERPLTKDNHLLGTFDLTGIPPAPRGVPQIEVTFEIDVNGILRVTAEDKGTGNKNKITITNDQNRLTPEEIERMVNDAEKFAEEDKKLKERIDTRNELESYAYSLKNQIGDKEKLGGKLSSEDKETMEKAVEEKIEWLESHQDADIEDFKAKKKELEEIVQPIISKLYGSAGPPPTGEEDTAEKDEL

The Kd of `KISPPTPKPRPPRPLPVAPGS (PIK3R1 proline-rich region 1 (Homo sapiens))` is reported as 41.3 ± 2.7 µM (FYN 72-142 (Homo sapiens, UniProt P06241); ITC; peptide).
`FIYWPWADLGVPDCG (macrocyclic peptide; cyclic)` gave a Kd of > 10 µM (KRAS fragment (Homo sapiens); SPR; peptide).
With `VASP EVH1 domain (Dictyostelium discoideum)` the Kd was > 100 µM (WASF2 20-residue peptide (Homo sapiens); BLI).
With `B1 (Cacna1c 1647-1777)` the Kd was 5.83 µM (Jph2 1-440 S165R (Mus musculus, UniProt Q9ET78); ITC).
The Kd of `F9 heavy and light chains, activated (UniProt P00740)` is reported as 0.001 µM (F8 activated, A1/A2/A3-C1-C2 R562Q (Homo sapiens); FXa generation, factor Xa generation rate; with: FX).
`LEIEPRNPKP (SOS1 proline-rich peptide, 1014-1023)` gave a Kd of 730 µM (GRB2 1-58 (Homo sapiens, UniProt P62993); NMR titration; peptide).
`B2 (PLXNA2 RBD 1490-1600)` has a Kd of 8.74 ± 2.42 µM (RND2 1-227 (Homo sapiens, UniProt P52198); SPR).
`GSGAGKETEC` gave a binding intensity of -0.131 (human MAGI1-3/6 PDZ construct (MBP fusion); automated holdup; peptide, purified PDZ protein; concentration not given, unit not given; relative to: biotin control resin, higher = stronger binding).
`LSSKEVDPSTGELQSLQMPE (SQSTM1 341-360; N-acetyl, C-terminal amide)` has a Kd of 1.7 µM (KEAP1 321-609 (Homo sapiens, UniProt Q14145); ITC; peptide).
For `B3 (DNAJB11 23-358)`, the Kd was 8.5 ± 1 µM (HSPA5 28-654 (Homo sapiens, UniProt P11021); MST).
The selectivity ratio of `MTVCNASQRQAHAQATAVSL` is reported as 0.9 ± 0.29 (H358; phage binding; peptide; relative to: targeting over control phage).
`B4 (IL23R 24-355)` has a Kd of 0.0108 µM and 0.0052 µM (IL23A/IL12B mature heterodimer, glycosylated (Homo sapiens); SPR; Fc fusion).
The Kd of `SCN2A IQ region I1911V (Homo sapiens) (sequence not shown)` is reported as 0.0221 µM (CALM1 (Homo sapiens, UniProt P0DP23); fluorescence titration; with: CaCl2).
With `DAMGO, D-Ala2; N-MePhe4; C-terminal Gly-ol` the Kd was 0.00172 µM (OPRM1 (Homo sapiens, UniProt P35372); radioligand binding; membranes; saturation).
The binding intensity of `GSGAGICTIV` is reported as 0.225 (human SCRIB PDZ3-4 tandem (MBP fusion); automated holdup; peptide, purified PDZ protein; concentration not given, unit not given; relative to: biotin control resin, higher = stronger binding).
